Published values collected from several papers.
Each numbered part is a random draw from the data of one study; scales do not carry over between parts. Changes are numbered by the printed parent chain.
UniProt P42336, sequence (whole entry, unmodified, looked up): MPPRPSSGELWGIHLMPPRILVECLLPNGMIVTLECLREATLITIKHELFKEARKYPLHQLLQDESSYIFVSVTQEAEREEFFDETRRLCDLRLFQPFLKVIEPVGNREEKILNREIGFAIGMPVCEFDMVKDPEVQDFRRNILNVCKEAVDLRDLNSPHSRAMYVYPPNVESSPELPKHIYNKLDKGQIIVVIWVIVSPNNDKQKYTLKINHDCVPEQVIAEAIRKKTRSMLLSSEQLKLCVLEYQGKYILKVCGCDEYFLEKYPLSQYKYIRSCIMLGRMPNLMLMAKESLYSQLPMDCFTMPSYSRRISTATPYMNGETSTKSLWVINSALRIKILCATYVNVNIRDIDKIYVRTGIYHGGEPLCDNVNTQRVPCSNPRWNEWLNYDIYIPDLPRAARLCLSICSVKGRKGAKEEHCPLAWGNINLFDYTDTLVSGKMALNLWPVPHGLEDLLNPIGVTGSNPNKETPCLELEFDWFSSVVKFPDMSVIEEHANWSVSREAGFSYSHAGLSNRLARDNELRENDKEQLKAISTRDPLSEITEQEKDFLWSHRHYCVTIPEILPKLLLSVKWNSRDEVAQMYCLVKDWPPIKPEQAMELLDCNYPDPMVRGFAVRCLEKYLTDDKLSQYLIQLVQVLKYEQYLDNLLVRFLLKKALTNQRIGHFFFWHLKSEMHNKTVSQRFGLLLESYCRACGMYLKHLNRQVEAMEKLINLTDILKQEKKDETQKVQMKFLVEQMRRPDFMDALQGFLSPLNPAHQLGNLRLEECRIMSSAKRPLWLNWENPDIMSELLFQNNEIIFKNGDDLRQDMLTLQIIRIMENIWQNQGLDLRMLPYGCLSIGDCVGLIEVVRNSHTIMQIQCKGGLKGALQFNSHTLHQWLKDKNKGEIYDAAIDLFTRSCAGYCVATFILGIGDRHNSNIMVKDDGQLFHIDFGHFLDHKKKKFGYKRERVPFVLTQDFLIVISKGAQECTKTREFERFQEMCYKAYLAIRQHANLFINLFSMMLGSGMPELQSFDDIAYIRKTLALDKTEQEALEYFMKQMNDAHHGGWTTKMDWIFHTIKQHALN
UniProt P29597, sequence (whole entry, looked up): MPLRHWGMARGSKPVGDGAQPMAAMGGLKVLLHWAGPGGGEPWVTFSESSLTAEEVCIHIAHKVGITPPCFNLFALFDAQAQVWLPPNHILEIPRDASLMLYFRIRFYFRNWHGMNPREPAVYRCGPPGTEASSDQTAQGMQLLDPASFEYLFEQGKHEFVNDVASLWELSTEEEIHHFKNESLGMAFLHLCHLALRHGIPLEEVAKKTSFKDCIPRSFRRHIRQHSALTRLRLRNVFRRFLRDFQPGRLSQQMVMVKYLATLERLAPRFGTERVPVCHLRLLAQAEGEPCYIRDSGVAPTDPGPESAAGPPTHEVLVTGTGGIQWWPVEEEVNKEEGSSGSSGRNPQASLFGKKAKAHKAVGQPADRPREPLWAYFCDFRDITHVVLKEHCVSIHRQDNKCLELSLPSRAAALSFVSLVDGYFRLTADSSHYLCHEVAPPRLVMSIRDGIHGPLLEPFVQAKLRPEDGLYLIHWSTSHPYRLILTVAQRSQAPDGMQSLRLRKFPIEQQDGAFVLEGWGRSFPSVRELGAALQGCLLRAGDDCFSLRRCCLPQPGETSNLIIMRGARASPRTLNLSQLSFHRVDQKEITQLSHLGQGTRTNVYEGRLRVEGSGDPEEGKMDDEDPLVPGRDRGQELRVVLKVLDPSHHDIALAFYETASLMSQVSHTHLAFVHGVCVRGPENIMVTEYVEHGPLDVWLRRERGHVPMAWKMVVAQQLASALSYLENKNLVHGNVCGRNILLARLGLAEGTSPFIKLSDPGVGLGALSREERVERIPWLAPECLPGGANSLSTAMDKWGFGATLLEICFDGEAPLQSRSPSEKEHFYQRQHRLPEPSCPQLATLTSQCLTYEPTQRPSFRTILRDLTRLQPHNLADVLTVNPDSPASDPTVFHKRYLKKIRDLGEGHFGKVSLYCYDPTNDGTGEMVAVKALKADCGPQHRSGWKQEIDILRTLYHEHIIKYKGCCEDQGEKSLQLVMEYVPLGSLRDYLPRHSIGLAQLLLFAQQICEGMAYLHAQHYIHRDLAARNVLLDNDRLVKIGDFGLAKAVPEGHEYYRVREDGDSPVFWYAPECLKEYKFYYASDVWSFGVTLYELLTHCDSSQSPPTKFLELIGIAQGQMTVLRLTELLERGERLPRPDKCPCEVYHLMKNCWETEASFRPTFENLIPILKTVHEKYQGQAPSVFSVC
UniProt Q96SB4, sequence (whole entry, looked up): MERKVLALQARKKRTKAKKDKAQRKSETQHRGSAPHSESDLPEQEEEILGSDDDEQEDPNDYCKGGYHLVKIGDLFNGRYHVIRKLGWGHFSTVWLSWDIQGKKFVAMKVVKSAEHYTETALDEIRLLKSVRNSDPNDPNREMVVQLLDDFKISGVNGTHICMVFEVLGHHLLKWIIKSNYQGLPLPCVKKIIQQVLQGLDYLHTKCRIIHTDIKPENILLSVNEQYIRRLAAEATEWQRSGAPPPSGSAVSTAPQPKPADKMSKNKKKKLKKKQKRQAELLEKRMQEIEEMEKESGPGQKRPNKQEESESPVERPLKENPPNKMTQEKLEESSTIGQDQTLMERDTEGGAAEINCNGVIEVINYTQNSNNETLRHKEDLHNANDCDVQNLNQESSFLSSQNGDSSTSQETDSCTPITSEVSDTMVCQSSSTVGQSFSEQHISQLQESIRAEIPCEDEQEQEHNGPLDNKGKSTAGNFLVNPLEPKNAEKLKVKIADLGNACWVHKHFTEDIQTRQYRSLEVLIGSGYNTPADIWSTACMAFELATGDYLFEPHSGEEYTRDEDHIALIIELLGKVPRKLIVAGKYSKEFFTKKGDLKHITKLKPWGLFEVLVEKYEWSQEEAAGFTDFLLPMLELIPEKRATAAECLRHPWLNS
UniProt Q14012, sequence (whole entry, looked up): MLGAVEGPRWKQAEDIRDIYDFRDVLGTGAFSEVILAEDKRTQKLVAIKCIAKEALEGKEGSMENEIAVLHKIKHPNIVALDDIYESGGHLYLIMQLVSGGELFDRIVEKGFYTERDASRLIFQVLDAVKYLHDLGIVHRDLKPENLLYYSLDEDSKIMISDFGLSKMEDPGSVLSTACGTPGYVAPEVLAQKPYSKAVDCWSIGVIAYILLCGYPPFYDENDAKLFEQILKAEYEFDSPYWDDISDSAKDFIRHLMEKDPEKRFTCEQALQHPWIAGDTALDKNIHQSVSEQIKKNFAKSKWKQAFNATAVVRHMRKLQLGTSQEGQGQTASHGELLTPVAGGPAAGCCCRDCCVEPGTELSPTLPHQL
UniProt Q15139, sequence (whole entry, looked up): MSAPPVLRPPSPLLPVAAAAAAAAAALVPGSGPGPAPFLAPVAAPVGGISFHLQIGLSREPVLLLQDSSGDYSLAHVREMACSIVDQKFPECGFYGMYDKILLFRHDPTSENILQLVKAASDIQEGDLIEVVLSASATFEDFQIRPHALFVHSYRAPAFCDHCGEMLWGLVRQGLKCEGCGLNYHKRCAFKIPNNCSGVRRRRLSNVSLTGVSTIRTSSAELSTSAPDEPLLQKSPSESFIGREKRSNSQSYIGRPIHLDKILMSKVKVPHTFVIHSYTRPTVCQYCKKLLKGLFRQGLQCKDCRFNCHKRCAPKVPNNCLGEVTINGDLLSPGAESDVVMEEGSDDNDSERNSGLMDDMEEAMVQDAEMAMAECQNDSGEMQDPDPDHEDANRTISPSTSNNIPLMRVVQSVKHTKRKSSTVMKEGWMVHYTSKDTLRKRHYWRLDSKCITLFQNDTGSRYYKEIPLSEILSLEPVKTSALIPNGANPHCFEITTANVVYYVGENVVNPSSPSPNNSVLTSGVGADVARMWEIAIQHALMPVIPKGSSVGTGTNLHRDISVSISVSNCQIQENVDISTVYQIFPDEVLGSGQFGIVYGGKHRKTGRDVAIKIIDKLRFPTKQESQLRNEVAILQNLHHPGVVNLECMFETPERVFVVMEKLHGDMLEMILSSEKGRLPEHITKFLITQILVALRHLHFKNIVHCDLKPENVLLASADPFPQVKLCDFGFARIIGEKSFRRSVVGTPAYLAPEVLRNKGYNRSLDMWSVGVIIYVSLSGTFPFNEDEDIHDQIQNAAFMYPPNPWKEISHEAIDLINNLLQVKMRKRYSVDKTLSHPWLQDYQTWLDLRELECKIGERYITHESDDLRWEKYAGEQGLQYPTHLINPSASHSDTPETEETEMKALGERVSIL
UniProt Q8N5S9, sequence (whole entry, looked up): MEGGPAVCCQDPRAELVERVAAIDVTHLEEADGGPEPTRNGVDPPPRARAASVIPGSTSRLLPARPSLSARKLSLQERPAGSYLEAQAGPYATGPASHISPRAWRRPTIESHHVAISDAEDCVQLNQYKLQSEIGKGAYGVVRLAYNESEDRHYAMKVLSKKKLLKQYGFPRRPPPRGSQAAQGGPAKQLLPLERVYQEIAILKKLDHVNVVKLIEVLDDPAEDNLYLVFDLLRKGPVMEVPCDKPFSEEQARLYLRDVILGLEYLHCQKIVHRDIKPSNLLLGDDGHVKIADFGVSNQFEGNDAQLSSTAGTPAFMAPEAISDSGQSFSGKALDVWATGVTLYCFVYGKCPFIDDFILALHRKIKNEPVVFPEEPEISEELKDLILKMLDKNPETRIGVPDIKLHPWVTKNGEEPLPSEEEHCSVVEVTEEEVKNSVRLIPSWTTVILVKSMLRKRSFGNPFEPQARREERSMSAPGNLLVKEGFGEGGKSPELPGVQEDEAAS

Series 1 — read-out: cell-free assay; technique: competition with immobilised ligand; concentration: 0.1 µM
Structure (SMILES): Cn1cc(Cl)c2c(Oc3c(F)cc(Nc4cc(Cl)nc(N)n4)cc3F)ccnc21
For Non-receptor tyrosine-protein kinase TYK2, JH1 (TYK2, Homo sapiens, UniProt P29597): remaining binding read 81%.
For Serine/threonine-protein kinase PAK 5 (PAK5, Homo sapiens, UniProt Q9P286): remaining binding read 90%.
The remaining binding was 100% (Bone morphogenetic protein receptor type-2 (BMPR2, Homo sapiens, UniProt Q13873)).
It gave 86% for remaining binding (Ribosomal protein S6 kinase alpha-1, N-terminal kinase domain (RPS6KA1, Homo sapiens, UniProt Q15418)).
Leukocyte tyrosine kinase receptor (LTK, Homo sapiens, UniProt P29376) — remaining binding: 87%.
For Proto-oncogene tyrosine-protein kinase receptor Ret (RET, Homo sapiens, UniProt P07949): remaining binding read 99%.
For Phosphatidylinositol 4,5-bisphosphate 3-kinase catalytic subunit alpha isoform (PIK3CA, Homo sapiens, UniProt P42336, M1043I): remaining binding read 64%.
Epidermal growth factor receptor (EGFR, Homo sapiens, UniProt P00533, del746-750) — remaining binding: 73%.
Ribosomal protein S6 kinase alpha-5, N-terminal kinase domain (RPS6KA5, Homo sapiens, UniProt O75582) — remaining binding: 100%.
The remaining binding was 91% (Mitogen-activated protein kinase kinase kinase kinase 5 (MAP4K5, Homo sapiens, UniProt Q9Y4K4)).
For BMP-2-inducible protein kinase (BMP2K, Homo sapiens, UniProt Q9NSY1): remaining binding read 100%.
It gave 76% for remaining binding (Phosphatidylinositol 4,5-bisphosphate 3-kinase catalytic subunit alpha isoform (PIK3CA, Homo sapiens, UniProt P42336, Q546K)).
For RAC-beta serine/threonine-protein kinase (AKT2, Homo sapiens, UniProt P31751): remaining binding read 100%.
For Phosphatidylinositol 4-kinase beta (PI4KB, Homo sapiens, UniProt Q9UBF8): remaining binding read 100%.
The remaining binding was 74% (Serine/threonine-protein kinase D1 (PRKD1, Homo sapiens, UniProt Q15139)).

Series 2 — SMILES: Oc1ccc(Nc2nc(-c3ccc(Cl)cc3)cs2)cc1; read-out: enzyme activity; mode: inhibitor; concentration: 0.5 µM; relative to: control
The remaining activity was 99.5% (Muscle, skeletal receptor tyrosine-protein kinase (MUSK, Homo sapiens, UniProt O15146)).
It gave 103% for remaining activity (Casein kinase I isoform epsilon (CSNK1E, Homo sapiens, UniProt P49674)).
For Dual specificity protein kinase CLK2 (CLK2, Homo sapiens, UniProt P49760): remaining activity read 102%.
Tyrosine-protein kinase receptor TYRO3 (TYRO3, Homo sapiens, UniProt Q06418) — remaining activity: 102%.
It gave 104% for remaining activity (Dual specificity protein kinase CLK1 (CLK1, Homo sapiens, UniProt P49759)).
It gave 102% for remaining activity (Insulin-like growth factor 1 receptor (IGF1R, Homo sapiens, UniProt P08069)).
The remaining activity was 103% (SRSF protein kinase 1 (SRPK1, Homo sapiens, UniProt Q96SB4)).
The remaining activity was 105% (Casein kinase I isoform delta (CSNK1D, Homo sapiens, UniProt P48730)).
Vascular endothelial growth factor receptor 1 (FLT1, Homo sapiens, UniProt P17948) — remaining activity: 82.3%.
The remaining activity was 100% (Serine/threonine-protein kinase PAK 6 (PAK6, Homo sapiens, UniProt Q9NQU5)).
The remaining activity was 105% (Protein kinase C zeta type (PRKCZ, Homo sapiens, UniProt Q05513)).
For Tyrosine-protein kinase Tec (TEC, Homo sapiens, UniProt P42680): remaining activity read 120%.
For Mitogen-activated protein kinase kinase kinase 20 (MAP3K20, Homo sapiens, UniProt Q9NYL2): remaining activity read 92.7%.
The remaining activity was 97.1% (Tyrosine-protein kinase JAK1 (JAK1, Homo sapiens, UniProt P23458)).
It gave 91.9% for remaining activity (Cyclin-dependent kinase 2, with cyclin E (CDK2, Homo sapiens, UniProt P24941)).
Serine/threonine-protein kinase PAK 1 (PAK1, Homo sapiens, UniProt Q13153) — remaining activity: 99.4%.
Serine/threonine-protein kinase Sgk2 (SGK2, Homo sapiens, UniProt Q9HBY8) — remaining activity: 108%.
The remaining activity was 111% (Calcium/calmodulin-dependent protein kinase type 1 (CAMK1, Homo sapiens, UniProt Q14012)).
It gave 90.7% for remaining activity (Serine/threonine-protein kinase SIK2 (SIK2, Homo sapiens, UniProt Q9H0K1)).
It gave 101% for remaining activity (Ephrin type-A receptor 6 (EPHA6, Homo sapiens, UniProt Q9UF33)).
It gave 107% for remaining activity (Ribosomal protein S6 kinase alpha-3 (RPS6KA3, Homo sapiens, UniProt P51812)).
It gave 105% for remaining activity (Ephrin type-A receptor 2 (EPHA2, Homo sapiens, UniProt P29317)).
Protein kinase C theta type (PRKCQ, Homo sapiens, UniProt Q04759) — remaining activity: 123%.
For Calcium/calmodulin-dependent protein kinase kinase 1 (CAMKK1, Homo sapiens, UniProt Q8N5S9): remaining activity read 124%.

Series 3 — target: CCNE1, cyclin fold, Cln2 fusion (human); technique: yeast growth competition, sequencing; medium: yeast; setting: strong parent motif; relative to: not given; reading: higher = stronger binding
Starting sequence: GMNC docking peptide (human); KNAKRNLSSEFAN
Under “normalised enrichment score”, `KNAKRNKSSEFAN [L7K]` is recorded as 0.635.
`KNAKRNLSSEFYN [A12Y]`: “normalised enrichment score” 0.812.
For `KNAKRWLSSEFAN [N6W]`, “normalised enrichment score” read 0.0272.
`KMAKRNLSSEFAN [N2M]` — result for “normalised enrichment score”: 0.809.
`KNAKRNLSSPFAN [E10P]`: “normalised enrichment score” 0.0142.
For `KNYKRNLSSEFAN [A3Y]`, “normalised enrichment score” read 0.868.
Under “normalised enrichment score”, `KNAKRNLSSWFAN [E10W]` is recorded as 1.13.
`KPAKRNLSSEFAN [N2P]`: “normalised enrichment score” 1.18.

Series 4 — technique: protein-binding microarray; form: hairpin DNA; medium: in vitro; concentration: not given; relative to: not given; reading: higher = stronger binding; shared flanks, not repeated: GAGGCCGT … ACGGCCTCACACTC
Target: Homeobox protein Hox-B13, full length (HOXB13, Homo sapiens, UniProt Q92826, residues 1-284)
UniProt Q92826, sequence (whole entry, looked up): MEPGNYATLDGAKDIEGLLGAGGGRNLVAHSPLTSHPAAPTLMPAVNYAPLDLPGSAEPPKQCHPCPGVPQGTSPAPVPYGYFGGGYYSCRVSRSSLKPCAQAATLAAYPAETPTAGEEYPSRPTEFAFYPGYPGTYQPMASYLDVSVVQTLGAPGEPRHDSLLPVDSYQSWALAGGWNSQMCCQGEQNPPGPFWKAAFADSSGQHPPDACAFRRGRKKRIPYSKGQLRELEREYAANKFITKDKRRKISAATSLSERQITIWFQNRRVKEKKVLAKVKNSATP
Setting: whole hairpin DNA, median over replicate spots
`TTTACGGGGGCCTCCTGGCCCCCGTAAA (5mC at 30)` has a median fluorescence of 5370 a.u.
The median fluorescence of `TTTACGAGAGCCTCCTGGCTCTCGTAAA` is reported as 5090 a.u.
The median fluorescence of `TTTATTGCGGCCTCCTGGCCGCAATAAA (5mC at 16 28)` is reported as 4800 a.u.
With `CGTACGAGGGCCTCCTGGCCCTCGTACG` the median fluorescence was 3960 a.u.
The median fluorescence of `TTTACAAGGGCCTCCTGGCCCTTGTAAA` is reported as 4700 a.u.
With `TCGACGAGGGCCTCCTGGCCCTCGTCGA (5mC at 10 34)` the median fluorescence was 4030 a.u.
`TTTACCGGGGCCTCCTGGCCCCGGTAAA (5mC at 30)` gave a median fluorescence of 4360 a.u.
The median fluorescence of `TTTACGAGGGCCTCCTGGCCCTCGTAAA (5mC at 29)` is reported as 4590 a.u.

Repeated from above (series 2):
It gave 91.9% for remaining activity (Cyclin-dependent kinase 2, with cyclin E (CDK2, Homo sapiens, UniProt P24941)).
Serine/threonine-protein kinase PAK 1 (PAK1, Homo sapiens, UniProt Q13153) — remaining activity: 99.4%.
Serine/threonine-protein kinase Sgk2 (SGK2, Homo sapiens, UniProt Q9HBY8) — remaining activity: 108%.
The remaining activity was 111% (Calcium/calmodulin-dependent protein kinase type 1 (CAMK1, Homo sapiens, UniProt Q14012)).
It gave 90.7% for remaining activity (Serine/threonine-protein kinase SIK2 (SIK2, Homo sapiens, UniProt Q9H0K1)).
It gave 101% for remaining activity (Ephrin type-A receptor 6 (EPHA6, Homo sapiens, UniProt Q9UF33)).
It gave 107% for remaining activity (Ribosomal protein S6 kinase alpha-3 (RPS6KA3, Homo sapiens, UniProt P51812)).
It gave 105% for remaining activity (Ephrin type-A receptor 2 (EPHA2, Homo sapiens, UniProt P29317)).
Protein kinase C theta type (PRKCQ, Homo sapiens, UniProt Q04759) — remaining activity: 123%.
